Measurements gathered from unrelated publications.
Lines come from different studies, so protocols differ. Several values in a cell are separate wells, animals, samples, runs or records. ± gives the spread as reported.

SMILES | assay | test system | conditions | scale | measurement | value
COc1ccc(CNc2ccc3c(c2)S(=O)(=O)C=C3)cc1 | flow cytometry | male C57BL/6 mice, spleen | i.p., 20 mg/kg, 8 days | reference: CD45+ cells | CD4+ cells | 13.9%
CC[C@H](C)[C@H](N)C(=O)N[C@@H](CCCNC(=N)N)C(=O)N[C@H](C(=O)N[C@@H](Cc1c[nH]c2ccccc12)C(=O)N[C@@H](Cc1ccccc1)C(=O)N[C@H](C(=O)N[C@@H](CCCCN)C(=O)N[C@H](C(=O)N[C@@H](CCCNC(=N)N)C(=O)N[C@@H](CCCCN)C(=O)N[C@@H](CCSC)C(=O)N[C@@H](CCCCN)C(=O)N[C@@H](C)C(=O)N[C@H](C(=O)N[C@@H](Cc1ccc(O)cc1)C(=O)N[C@@H](Cc1c[nH]cn1)C(N)=O)[C@@H](C)CC)C(C)C)[C@@H](C)CC)C(C)C | reversed-phase UPLC | C18 column, TFA |  |  | elution acetonitrile content | 44.4%
C=CC(=O)Nc1cccc(Cn2ncc3cnc(Nc4cnn(CCOC)c4)nc32)c1 |  | male Sprague-Dawley rat | oral, 180 mg/kg/day, day 28, 28-day subacute toxicity |  | serum LDL | 0.14 ± 0.05 mM
O=C1NC2(CC2)COc2ncc(F)cc2[C@H]2COCCN2c2ccn3ncc1c3n2 |  | Sprague-Dawley rats, female, blood | oral, 5 mg/kg/day, end of recovery, 4-week subacute toxicity |  | haematocrit | 40.1 ± 2.1%
CC[C@H](C)[C@H](NC(=O)[C@H](CCCCN)NC(=O)CNC(=O)[C@H](CC(C)C)NC(=O)[C@H](Cc1ccccc1)NC(=O)[C@H](CCCCN)NC(=O)[C@H](CO)NC(=O)[C@H](Cc1ccccc1)NC(=O)[C@H](Cc1c[nH]c2ccccc12)NC(=O)[C@H](CCC(N)=O)NC(=O)[C@@H](NC(=O)[C@H](Cc1ccccc1)NC(=O)CCCCCNC(=O)CN1CCN(CC(=O)O)CCN(CC(=O)O)CCN(CC(=O)O)CC1)C(C)C)C(=O)N[C@@H](CCC(=O)O)C(=O)N1CCC[C@H]1C(=O)N[C@@H](CC(=O)O)C(=O)N[C@H](C(=O)N[C@@H](CO)C(=O)N[C@@H](CCC(N)=O)C(=O)N[C@H](C(=O)N[C@@H](CCC(N)=O)C(=O)N[C@@H](CC(=O)O)C(=O)N1CCC[C@H]1C(=O)N[C@@H](CC(N)=O)C(=O)N[C@@H](CC(=O)O)C(=O)N[C@@H](CCC(N)=O)C(=O)N[C@@H](Cc1ccc(O)cc1)C(=O)N[C@@H](CCC(=O)O)C(=O)N1CCC[C@H]1C(=O)N[C@@H](Cc1ccccc1)C(=O)O)C(C)C)C(C)C [copper-64 labelled] |  | GZMB-/- mouse bearing CT26 tumour, spleen | dose not given, 2 h, checkpoint inhibitor-treated |  | tissue uptake | 0.64 ± 0.1 %ID/g
Cn1nc(NS(C)(=O)=O)c2c(Cl)ccc(-n3c([C@H](Cc4cc(F)cc(F)c4)NC(=O)Cn4nc(C(F)F)c5c4C(F)(F)[C@@H]4C[C@H]54)nc4nc(OCCC(F)(F)F)ccc4c3=O)c21 |  | human, plasma | oral, 25 mg single dose, powder in bottle, median |  | tmax | 12 h
CSCC[C@H](N)C(=O)N[C@@H](C)C(=O)N[C@@H](CCCNC(=N)N)C(=O)N[C@@H](CCCNC(=N)N)C(=O)N[C@@H](CC(=O)O)C(=O)N[C@@H](CCCCN)C(=O)N[C@H](C(=O)N[C@@H](CC(=O)O)C(=O)N[C@@H](Cc1ccccc1)C(=O)N[C@@H](C)C(=O)N[C@@H](CCCNC(=N)N)C(=O)N[C@@H](CCCNC(=N)N)C(=O)N[C@@H](CCCNC(=N)N)C(=O)N[C@@H](CCCNC(=N)N)C(=O)NCCCCCC(=O)NCCCCC(NC(=O)CCCCCNC(=O)[C@H](CCCNC(=N)N)NC(=O)[C@H](CCCNC(=N)N)NC(=O)[C@H](CCCNC(=N)N)NC(=O)[C@H](CCCNC(=N)N)NC(=O)[C@H](C)NC(=O)[C@H](Cc1ccccc1)NC(=O)[C@H](CC(=O)O)NC(=O)[C@@H](NC(=O)[C@H](CCCCN)NC(=O)[C@H](CC(=O)O)NC(=O)[C@H](CCCNC(=N)N)NC(=O)[C@H](CCCNC(=N)N)NC(=O)[C@H](C)NC(=O)[C@@H](N)CCSC)[C@@H](C)O)C(=O)NCCCCC(NC(=O)C(CCCCNC(=O)CCCCCNC(=O)[C@H](CCCNC(=N)N)NC(=O)[C@H](CCCNC(=N)N)NC(=O)[C@H](CCCNC(=N)N)NC(=O)[C@H](CCCNC(=N)N)NC(=O)[C@H](C)NC(=O)[C@H](Cc1ccccc1)NC(=O)[C@H](CC(=O)O)NC(=O)[C@@H](NC(=O)[C@H](CCCCN)NC(=O)[C@H](CC(=O)O)NC(=O)[C@H](CCCNC(=N)N)NC(=O)[C@H](CCCNC(=N)N)NC(=O)[C@H](C)NC(=O)[C@@H](N)CCSC)[C@@H](C)O)NC(=O)CCCCCNC(=O)[C@H](CCCNC(=N)N)NC(=O)[C@H](CCCNC(=N)N)NC(=O)[C@H](CCCNC(=N)N)NC(=O)[C@H](CCCNC(=N)N)NC(=O)[C@H](C)NC(=O)[C@H](Cc1ccccc1)NC(=O)[C@H](CC(=O)O)NC(=O)[C@@H](NC(=O)[C@H](CCCCN)NC(=O)[C@H](CC(=O)O)NC(=O)[C@H](CCCNC(=N)N)NC(=O)[C@H](CCCNC(=N)N)NC(=O)[C@H](C)NC(=O)[C@@H](N)CCSC)[C@@H](C)O)C(N)=O)[C@@H](C)O (stereo partly drawn) |  | C57BL/6 mouse female, thymus | dose not given, 6 h | reference: total | tissue distribution | 0.85% and 0.89% and 1.24%
CC(C)C[C@@H](NC(=O)[C@@H](CCCCN)NC(=O)CNC(=O)CNC(=O)[C@@H]1CSSC[C@H](N)C(=O)NCC(=O)N[C@@H](CCCNC(=N)N)C(=O)N[C@@H](CCCNC(=N)N)C(=O)N[C@@H](C)C(=O)NCC(=O)NCC(=O)N[C@@H](CO)C(=O)N1)C(=O)N[C@H](C)C(=O)N[C@H](CCCCN)C(=O)N[C@H](CC(C)C)C(=O)N[C@H](C)C(=O)N[C@H](CCCCN)C(=O)N[C@H](CCCCN)C(=O)N[C@H](CC(C)C)C(=O)N[C@H](C)C(=O)N[C@H](CCCCN)C(=O)N[C@H](CC(C)C)C(=O)N[C@H](C)C(=O)N[C@H](CCCCN)C(=O)O |  | mouse, plasma | intravenous, 15 mg/kg |  | AUC | 164 µg·h/mL
CC(C)[C@@H]1NC(=O)CNC(=O)[C@H](CC(N)=O)NC(=O)[C@H](CCCNC(=N)N)NC(=O)[C@H](Cc2ccc(O)cc2)NC(=O)[C@H](C(C)C)NC(=O)[C@@H](NC(=O)[C@@H](NC(=O)[C@H](CC(N)=O)NC(=O)[C@H](Cc2c[nH]c3ccccc23)NC(=O)[C@H](C)NC(=O)[C@H](Cc2ccccc2)NC(=O)CNC(=O)[C@H](CCCCN)NC(=O)[C@H](Cc2ccccc2)NC(=O)[C@H](Cc2ccccc2)NC(=O)[C@H](CCCCN)NC(=O)OCC2c3ccccc3-c3ccccc32)C(C)C)CSSC[C@@H](C(=O)N[C@@H](Cc2c[nH]cn2)C(=O)N[C@@H](CCCNC(=N)N)C(=O)N[C@@H](CCCNC(=N)N)C(=O)N[C@@H](C)C(=O)N[C@@H](CC(N)=O)C(N)=O)NC(=O)[C@H](C(C)C)NC(=O)[C@H](CCCNC(=N)N)NC1=O |  | ICR mouse | ip, 10 mg/kg | direction not given | body posture score | 0
C=Cc1c(C)c2cc3nc(c(CC(=O)[O-])c4[n-]c(cc5nc(cc1[n-]2)C(C)=C5CC)c(C)c4C(=O)[O-])C(CCC(=O)[O-])C3C.[Cu+2].[Na+].[Na+].[Na+] (stereo not drawn) |  | BALB/c mouse | oral, acute single dose |  | maximum tolerated dose | > 5000 mg/kg bw
CC[C@H](C)[C@H](NC(=O)CN)C(=O)N[C@@H](CCCNC(=N)N)C(=O)N[C@@H](CCCCN)C(=O)N[C@@H](Cc1c[nH]c2ccccc12)C(=O)N[C@@H](Cc1ccccc1)C(=O)N[C@@H](CCCCN)C(=O)N[C@@H](CCCCN)C(=O)N[C@@H](C)C(=O)N[C@@H](C)C(=O)N[C@@H](Cc1c[nH]cn1)C(=O)N[C@H](C(=O)NCC(=O)N[C@@H](CCCCN)C(=O)N[C@@H](CCCCN)C(=O)N[C@H](C(=O)NCC(=O)N[C@@H](CCCCN)C(=O)N[C@H](C(=O)N[C@@H](C)C(=O)N[C@@H](CC(C)C)C(=O)N[C@@H](CC(N)=O)C(=O)N[C@@H](C)C(=O)N[C@@H](Cc1ccc(O)cc1)C(=O)N[C@@H](CC(C)C)C(N)=O)C(C)C)C(C)C)C(C)C |  | zebrafish embryos 28 hpf, E3 medium | 24 h |  | chronic toxic concentration | 5 µM
CCc1nn(C)c2nc(-c3ccc(C(=O)O)cc3)nc(NCc3ccccc3)c12 |  | male CD-1 mouse, plasma | intravenous, 1 mg/kg, 24 h |  | concentration | 1 ng/mL
